Experimental data gathered from unrelated publications.
± marks the error that the study gave.

| SMILES | assay | test system | conditions | how to read | endpoint | result |
| --- | --- | --- | --- | --- | --- | --- |
| Cc1nc(Nc2ccc(CC(=O)O)cc2)nc(Nc2ccc(F)c(C(F)(F)F)c2)c1C | – | mice, chronic ethanol plus binge | intraperitoneal, 0.3 mg/kg daily, ethanol diet 4 weeks, dosed last two | reference: vehicle | serum urea nitrogen | no effect |
| C[C@]1(CO)Cc2ncn(-c3ccc(C#N)c(Cl)c3)c2C(=O)O1 | – | human, plasma | 10 mg once daily, fasted | – | Cmax at steady state | 435 nM |
| CC(C)[C@@H]1NC(=O)CNC(=O)[C@H](CC(N)=O)NC(=O)[C@H](CCCNC(=N)N)NC(=O)[C@H](Cc2ccc(O)cc2)NC(=O)[C@H](C(C)C)NC(=O)[C@@H](NC(=O)[C@@H](NC(=O)[C@H](CC(N)=O)NC(=O)[C@H](Cc2c[nH]c3ccccc23)NC(=O)[C@H](C)NC(=O)[C@H](Cc2ccccc2)NC(=O)CN)C(C)C)CSSC[C@@H](C(=O)N[C@@H](Cc2cnc[nH]2)C(=O)N[C@@H](CCCNC(=N)N)C(=O)N[C@@H](CCCNC(=N)N)C(=O)N[C@@H](C)C(=O)N[C@@H](CC(N)=O)C(N)=O)NC(=O)[C@H](C(C)C)NC(=O)[C@H](CCCNC(=N)N)NC1=O | – | ICR mouse, blood | intramammary, 10 mg/kg, day 5, 3 d dosing | – | albumin | 33.1 ± 1.22 g/L |
| CC(C)(O)c1cc(Nc2cc(Oc3cn(C4CC4)nc3C3CCOCC3)ccn2)ccn1 | Cough | patients with advanced cancer, Japanese cohort | oral, dose not given, grade ≥3 | – | treatment-related adverse events | 0% |
| CC[C@H](C)[C@H](NC(=O)[C@H](CCCCN)NC(=O)[C@H](CCC(=O)O)NC(=O)[C@H](CCCCN)NC(=O)[C@H](CO)NC(=O)[C@H](CCCCN)NC(=O)[C@H](CCCNC(=N)N)NC(=O)[C@H](Cc1ccccc1)NC(=O)[C@H](Cc1ccccc1)NC(=O)[C@H](CC(=O)O)NC(=O)CNC(=O)[C@H](CC(C)C)NC(=O)[C@@H](N)CC(C)C)C(=O)NCC(=O)N[C@@H](CCCCN)C(=O)N[C@@H](CCC(=O)O)C(=O)N[C@@H](Cc1ccccc1)C(=O)N[C@@H](CCCCN)C(=O)N[C@@H](CCCNC(=N)N)C(=O)N[C@H](C(=O)N[C@H](C(=O)N[C@@H](CCC(N)=O)C(=O)N[C@@H](CCCNC(=N)N)C(=O)N[C@H](C(=O)N[C@@H](CCCCN)C(=O)N[C@@H](CC(=O)O)C(=O)N[C@@H](Cc1ccccc1)C(=O)N[C@@H](CC(C)C)C(=O)N[C@@H](CCCNC(=N)N)C(=O)N[C@@H](CC(N)=O)C(=O)N[C@@H](CC(C)C)C(=O)N[C@H](C(=O)N1CCC[C@H]1C(=O)N[C@@H](CCCNC(=N)N)C(=O)N[C@H](C(=O)N[C@@H](CCC(=O)O)C(=O)N[C@@H](CO)C(=O)O)[C@@H](C)O)C(C)C)[C@@H](C)CC)C(C)C)[C@@H](C)CC | LC-MS | 50% pooled human serum in Tris-HCl buffer | 40 µM, 2 h, pH 7.5, 37 °C | reference: 0 h value | remaining intact peptide | 2.91% |
| COc1cc2c(Oc3ccc4[nH]c(C)cc4c3F)ccnc2cc1OCC1(N)CC1 | – | paediatric refractory sarcoma patients | 10 mg | – | Proteinuria incidence | 25% |
| Cc1cccc(Cn2nc(C3CC3)c3c(NC(=O)c4cnc5cc(OCCN6CCN(C)CC6)ccn45)cccc32)n1 | refers to: AST increased | human advanced solid tumours | oral, dose not given, all-causality,, all doses | – | adverse events incidence | 63.2% |
| CCNCCCNC/C=C\CNCCCNCC | – | human, advanced solid tumours | intravenous, dose not given | reference: patients | drug-related TEAE, investigations | 8.7% |
| NC(=O)[C@H]1CCN(c2ncnc(N)c2F)C[C@@H]1N1CCC[C@@H](Nc2cc(Cl)cc(C(F)(F)F)c2)C1=O | – | B-cell malignancy patients | oral, 246 mg twice daily, dose | – | grade ≥3 thrombocytopenia | 0% |
| C[C@@H]1NC(=O)[C@H](CCCCNC(=O)CO/N=C/C(=O)NCCCC[C@@H]2NC(=O)[C@@H](Cc3ccccc3)NC(=O)[C@H](CC(=O)O)NC(=O)CNC(=O)[C@H](CCCNC(=N)N)NC2=O)NC(=O)CNC(=O)[C@@H]2CCCN2C(=O)[C@H](CCCCNC(=O)CO/N=C/C(=O)NCCCC[C@@H]2NC(=O)[C@@H](Cc3ccccc3)NC(=O)[C@H](CC(=O)O)NC(=O)CNC(=O)[C@H](CCCNC(=N)N)NC2=O)NC(=O)[C@H](CCCCNC(=O)CCNC(=O)CCNC(=O)CCNC(=O)[C@H](CCCCN)NC(=O)[C@H](Cc2ccccc2)NC(=O)CNC(=O)CN2CCCNCCNCCCNCC2)NC(=O)[C@H](CCCCNC(=O)CO/N=C/C(=O)NCCCC[C@@H]2NC(=O)[C@@H](Cc3ccccc3)NC(=O)[C@H](CC(=O)O)NC(=O)CNC(=O)[C@H](CCCNC(=N)N)NC2=O)NC(=O)CNC(=O)[C@@H]2CCCN2C(=O)[C@H](CCCCNC(=O)CO/N=C/C(=O)NCCCC[C@@H]2NC(=O)[C@@H](Cc3ccccc3)NC(=O)[C@H](CC(=O)O)NC(=O)CNC(=O)[C@H](CCCNC(=N)N)NC2=O)NC1=O [copper-64 labelled] | – | normal mice, spleen | intravenous, 0.74 MBq, 3 h post-injection | – | tissue uptake | 5.3 ± 0.54 %ID/g |
| CCN(CC)CCCC(C)Nc1c2ccc(Cl)cc2nc2ccc(OC)cc12 (centres unmarked) | – | human cells | 48 (unit not given) | – | CC50 | 7.63 µM |
| CC(C)(C(=O)NC1C2CC3CC1CC(C(N)=O)(C3)C2)N1CCN(c2ccc(C(F)(F)F)cn2)CC1 (centres unmarked) | – | human, plasma | 10 mg once daily, 5 days, median | – | dose-normalised free AUC(0-24) | 1.4 (ng·h/mL)/mg |
| Cc1ncnc2c1ccn2[C@@H]1C[C@H](Oc2cc(C(F)F)c(F)c3c2CNCC3)[C@@H](O)[C@H]1O | – | patients | dose not given, grade ≥3 | reference: patients | Dysgeusia incidence | 0% |
| Clc1ccc(-c2ccccc2)cc1 | – | female Sprague-Dawley rats, serum | inhalation, 23 µg/rat, 0 h after exposure | – | blood urea nitrogen | 15 ± 4 mg/dL |
| O=C1Nc2cc3[nH]nc(-c4ccncc4)c3cc2CN1Cc1ccccc1 | CTCAE v4.03 | human, relapsed or refractory advanced solid tumours | intravenous, 9.6 mg/kg, pooled schedules | – | patients with subretinal fluid | 33% |
| CCN(CCO)CCCC(C)Nc1ccnc2cc(Cl)ccc12 (centres unmarked) | – | newly diagnosed glioblastoma patients | oral, 800 mg/dose, grade 2, added: radiotherapy plus temozolomide | – | non-cardiac chest pain patients | 33% |
| Brc1ccc(Oc2cc(Br)c(Br)cc2Br)c(Br)c1 | – | whole cow milk | 2000 nM nominal | – | dose fraction in skim milk | 9.29% |
| O=S(=O)(Nc1ccccc1)c1ccc(NC(=S)Nc2ccccc2)cc1 | – | female mice, thymus | oral, 5 mg/kg daily 14 days | reference: body weight | relative organ weight | 0.35% |
| O=c1nc(NO)ccn1[C@@H]1O[C@H](CO)[C@@H](O)[C@H]1O | – | rat maternal placenta dialysate | 25 ng/mL, low concentration, three cycles, added: molnupiravir 5 ng/mL | – | freeze-thaw stability | 90.4 ± 4.92% |
| N=C(N)NCCC[C@@H](NC(=O)[C@@H](N)Cc1ccccc1)C(=O)N[C@@H](Cc1ccccc1)C(=O)N[C@@H](CCCCN)C(N)=O | – | early Huntington's disease patients, plasma | subcutaneous, 5 mg, day 1, median | – | lag time | 0 h |
| CO[C@H]1C[C@@H]2CC[C@@H](C)[C@@](O)(O2)C(=O)C(=O)N2CCCC[C@H]2C(=O)O[C@H]([C@H](C)C[C@@H]2CC[C@@H](OC(=O)NCCOCCOCCOCCOCCOCCOCCOCCOCCC(=O)N3CCc4cc(Cn5nc(-c6ccc7oc(N)nc7c6)c6c(N)ncnc65)ccc4C3)[C@H](OC)C2)C[C@@H](O)[C@H](C)/C=C(\C)[C@@H](O)[C@@H](OC)C(=O)[C@H](C)C[C@H](C)/C=C/C=C/C=C/1C | phase 1 dose escalation | advanced solid tumour patients | intravenous, 10 mg weekly, grade ≥3 | – | any TEAE incidence | 75% |
| COc1ccnc(C(=O)N[C@H]2COC(=O)[C@H](Cc3ccccc3)[C@@H](OC(=O)C(C)C)[C@H](C)OC2=O)c1OCOC(=O)C(C)C | – | sediment, Swiss lake sand | 20 °C, aerobic dark | – | DT50 | 3.3 days |
| C[C@H]1CN(C(=O)CC#N)[C@]12CCN(c1ncnc3[nH]ccc13)C2 | – | dog male and female | oral, 3 months, repeated-dose toxicity study | – | NOAEL | 3 mg/kg |
| O=C(Nc1ccccc1)C1CCN(C(=O)Oc2cccnc2)CC1 | Bond-Lader VAS | healthy women | oral, 20 mg | reference: pre-dose baseline, direction not given | change in Happy-Sad score | -16 |
| N[C@@H]1c2ccccc2OC12CCN(c1cnc3c(N4CCCc5ncccc54)n[nH]c3n1)CC2 | – | advanced metastatic solid tumour patients | oral, 60 mg once daily | – | TEAE leading to withdrawal | 0% |
| CCc1ccc(CC/C=C/c2ccc3c(c2)C(=O)CC3)cc1 | – | Sprague-Dawley rat, male, serum | oral, 450 mg/kg/day, 14 days | – | creatinine | 17.7 µM |
